Experimental data collected from several papers.
Each line is one published result; not all experiments were run side by side. ± gives the spread as reported. ≈ marks a conversion by molar mass, not a printed value.

`CC(C)C[C@H](NC(=O)CNC(=O)c1cc(Cl)ccc1Cl)B(O)O` has an AUC(0-last) of 907 ng·h/mL (human, plasma; oral, 4 mg, day 1, alone).
The tissue concentration of `c1cc2ccc3cccc4ccc(c1)c2c34` is reported as 11.6 ± 0.9 ng/g (HPLC-fluorescence; Wistar rat, male, brain; oral, 4 mg/kg, 24 h).
`O[C@H]1CCCN[C@@H]1CCCn1cnc2c(Cl)c(Cl)ccc21` has a Tmax of 3 h (healthy human volunteers, plasma; oral, 50 mg, day 1, median).
The tissue uptake of `CC(=O)N[C@H](CCCCNC(=O)C(C)F)C(=O)N[C@@H](CS)C(=O)N[C@@H](CS)C(=O)N[C@@H](CCC(=O)O)C(=O)N[C@@H](Cc1c[nH]cn1)C(=O)N[C@H](Cc1ccccc1)C(=O)N[C@@H](CCCNC(=N)N)C(=O)N[C@@H](Cc1c[nH]c2ccccc12)C(=O)N[C@@H](CS)C(=O)N[C@@H](CCCNC(=N)N)C(=O)N1CCC[C@H]1C(=O)N[C@H](C(N)=O)C(C)C` (some centres unmarked) [fluorine-18 labelled] is reported as 0.61 ± 0.05 %ID/g (C57BL/6 mice, male, B16-F10 tumour, spleen; intravenous, 1 h).
The Cmax of `C[C@H]1CNCCc2ccc(Cl)cc21` is reported as 106 ng/mL (male Sprague-Dawley rat, plasma; subcutaneous, 3 mg/kg, single dose).
With `CN[C@@](C)(C[18F])C(=O)O` the tissue uptake was 15 ± 5.4 %ID/g (SCID mouse DU-145 xenograft, spleen; 30 min, post injection).
With `CC1(C)S[C@@H]2[C@H](NC(=O)[C@@H](C(=O)O)c3ccsc3)C(=O)N2[C@H]1C(=O)O` the relative error was 2.4% (rat plasma; 2400 ng/mL, 24 h, room temperature, short-term stability; relative to: nominal concentration).
For `Clc1ccc(Cl)c(-c2c(Cl)ccc(Cl)c2Cl)c1`, the enantiomeric fraction was 0.64 (rat liver microsomes; 50 µM, 30 min, remaining parent PCB).
`CC[C@H](C)[C@H](NC(=O)[C@@H](N)CCCNC(=N)N)C(=O)N[C@H](C(=O)N1CCC[C@H]1C(=O)N[C@@H](C)C(N)=O)C(C)C` has a Cmax of 16600 ± 10200 ng/mL (healthy volunteers, both sexes, plasma; intravenous infusion, 4.5 mg/kg daily, day 7, multiple ascending dose).
With `CSCC[C@H](NC(C)=O)C(=O)N[C@H]1CSSC[C@@H](C(=O)NCC(=O)N[C@@H](CO)C(=O)NCC(=O)N[C@@H](CO)C(=O)N[C@@H](CC(=O)O)C(=O)N[C@@H](Cc2ccc(O)cc2)C(=O)N[C@@H](CCCCN)C(=O)N[C@@H](CC(=O)O)C(=O)N[C@@H](CC(=O)O)C(=O)N[C@@H](CC(=O)O)C(=O)N[C@@H](CC(=O)O)C(=O)N[C@@H](CCCCN)C(N)=O)NC(=O)[C@H](Cc2ccccc2)NC(=O)[C@@H]2CCCN2C(=O)[C@H](Cc2c[nH]c3ccccc23)NC(=O)[C@H](CC(C)C)NC(=O)[C@H](CCSC)NC(=O)[C@H](Cc2c[nH]cn2)NC(=O)[C@H](Cc2ccccc2)NC(=O)[C@H](Cc2c[nH]cn2)NC(=O)[C@H]([C@@H](C)O)NC(=O)[C@H](Cc2ccccc2)NC1=O` the t1/2 was 3.5 h (pooled human plasma; 1 µM, pH 7.4, 37 °C, 80% plasma).
`CC[C@H](C)[C@H](NC(=O)[C@H](CO)NC(=O)[C@H](C)NC(=O)[C@@H](NC(=O)CNC(=O)[C@H](CO)NC(=O)[C@@H](NC(=O)[C@@H](NC(=O)[C@H](Cc1c[nH]cn1)NC(=O)[C@@H]1CCCN1C(=O)[C@@H](NC(=O)[C@H](CC(C)C)NC(=O)[C@H](CO)NC(=O)[C@H](CC(C)C)NC(=O)[C@@H](N)Cc1ccccc1)[C@@H](C)CC)[C@@H](C)CC)C(C)C)C(C)C)C(=O)N[C@@H](C)C(=O)N[C@@H](CCCCN)C(=O)N[C@@H](Cc1c[nH]cn1)C(=O)N[C@@H](Cc1ccccc1)C(N)=O` has a concentration found of 207 ng/mL (UPLC-MS/MS; rat plasma; 0.2 µg/mL, three freeze-thaw cycles).
`CC[C@H](C)[C@H](NC(=O)[C@H](Cc1ccccc1)NC(=O)[C@H](CC(=O)O)NC(=O)[C@H](CCCNC(=N)N)NC(=O)[C@H](Cc1ccccc1)NC(=O)[C@H](Cc1ccccc1)NC(=O)[C@H](CCCCN)NC(=O)[C@H](CO)NC(=O)[C@H](CC(C)C)NC(=O)[C@H](CCCNC(=N)N)NC(=O)[C@H](CCSC)NC(=O)[C@@H](N)CCC(=O)O)C(=O)N[C@@H](CC(C)C)C(=O)N[C@@H](CCC(N)=O)C(=O)N[C@@H](CCCNC(=N)N)C(=O)N[C@@H](CCCCN)C(=O)N[C@@H](CCCCN)C(=O)O` — result for “time to full clearance”: 36 h (IVIS fluorescence imaging; CD-1 mice; intravenous, 50 µg/mouse, Cy7.5-labelled peptide).
For `C[C@](O)(Cn1ccc2cc(F)ccc21)C(=O)Nc1ccc(C#N)c(C(F)(F)F)c1`, the tumour concentration was 562 nM (mass spectrometry; mouse, tumour; dose not given).
The AUC(0-8 h) of `CNC(=O)c1ccc(-c2cnn3ccc(C(=O)N(C)c4ccc(Cl)c(C(=O)OC)c4)cc23)cc1` is reported as 63.4 ng·h/mL (beagle dogs, both sexes, plasma; oral, 15 mg/kg/day, day 1, 2-week toxicology study).
`Clc1ccc(Cl)c(-c2c(Cl)ccc(Cl)c2Cl)c1Cl` gave an enantiomeric fraction of 0.78 ± 0.01 (wild-type mice, female, whole blood; oral, 6.63 mg/kg single, 48 h, with: racemic dose).
For `O=c1[nH]c(Cc2ccccn2)nc2c1cnn2C1CCOCC1`, the AUC(0-inf) was 0.648 µM·h (male human, plasma; oral, 50 mg, single dose).
The retention time of `CC[C@H](C)[C@H](NC(=O)[C@H](C)NC(=O)[C@H](CCCCN)NC(=O)[C@H](CC(C)C)NC(=O)[C@H](C)NC(=O)[C@@H](NC(=O)[C@H](Cc1c[nH]cn1)NC(=O)[C@H](CC(C)C)NC(=O)[C@@H](NC(=O)[C@@H](NC(=O)[C@H](CCCCN)NC(=O)[C@H](CCCCN)NC(=O)[C@H](C)NC(=O)[C@H](CO)NC(=O)[C@H](CCCCN)NC(=O)[C@H](Cc1ccccc1)NC(=O)[C@@H](NC(=O)[C@H](CCCCN)NC(=O)[C@H](CC(C)C)NC(=O)[C@H](Cc1ccccc1)NC(=O)[C@H](CO)NC(=O)[C@H](CCCCN)NC(=O)[C@H](Cc1c[nH]c2ccccc12)NC(=O)[C@H](CCCCN)NC(C)=O)[C@@H](C)O)[C@@H](C)O)C(C)C)[C@@H](C)O)C(=O)N[C@@H](CO)C(=O)N[C@@H](CO)C(N)=O` is reported as 17.4 min (RP-HPLC; Zorbax 300 SB-C8 column; 65 °C).
For `NC(=O)c1nc(F)c[nH]c1=O`, the solubility was 1700 µg/mL (≈ 10.8 mM) (UV-Vis spectrophotometry; supercritical CO2; 120 min, 308 K, 30 MPa, 929.68 kg/m^3).
For `CC[C@H](C)[C@H](NC(=O)[C@H](CC(C)C)NC(=O)[C@H](Cc1c[nH]c2ccccc12)NC(=O)[C@H](CCC(N)=O)NC(=O)[C@@H](NC(=O)[C@H](Cc1ccccc1)NC(=O)[C@H](C)NC(=O)[C@H](CCCCNC(=O)COCCOCCNC(=O)COCCOCCNC(=O)CC[C@H](NC(=O)CCCCCCCCCCCCCCCCCCC(=O)O)C(=O)O)NC(=O)[C@H](CCC(N)=O)NC(=O)[C@H](C)NC(=O)[C@@H](NC(=O)[C@H](CCCCN)NC(=O)[C@H](CC(=O)O)NC(=O)[C@H](CC(C)C)NC(=O)C(C)(C)NC(=O)[C@@H](NC(=O)[C@H](CO)NC(=O)[C@H](Cc1ccc(O)cc1)NC(=O)[C@H](CC(=O)O)NC(=O)[C@H](CO)NC(=O)[C@@H](NC(=O)[C@H](Cc1ccccc1)NC(=O)[C@@H](NC(=O)CNC(=O)[C@H](CCC(=O)O)NC(=O)C(C)(C)NC(=O)[C@@H](N)Cc1ccc(O)cc1)[C@@H](C)O)[C@@H](C)O)[C@@H](C)CC)[C@@H](C)CC)C(C)C)C(=O)N[C@@H](C)C(=O)NCC(=O)NCC(=O)N1CCC[C@H]1C(=O)N[C@@H](CO)C(=O)N[C@@H](CO)C(=O)NCC(=O)N[C@@H](C)C(=O)N1CCC[C@H]1C(=O)N1CCC[C@H]1C(=O)N1CCC[C@H]1C(=O)N[C@@H](CO)C(N)=O`, the CL/F was 0.48 mL/min (human, plasma; subcutaneous, 5 mg, week 8, steady state, geometric mean).
With `CC(C)Nc1nc(Cl)nc(NC(C)C)n1` the remaining amount was 40.4 ± 6.85% (LC-MS/MS; herbicide solution; 2 h, 4 °C, with: 254 nm UV exposure).
For `[123I]c1cncc(OC[C@@H]2CCN2)c1`, the tissue/plasma ratio was 19.3 (SPECT; human, temporal lobe; intravenous bolus plus infusion, 5.2 mCi; relative to: plasma).
For `CCCCCCCCCCCCCCCC[N+](C)(C)C`, “unbound fraction in blood” read 0.112 (ultrafiltration; human serum).
The tissue uptake of `CSCC[C@@H]1NC(=O)[C@H](CC(=O)O)NC(=O)CNC(=O)[C@H](CCCNC(=N)N)NC(=O)[C@H](C)NC(=O)[C@H](CCC(=O)O)NC(=O)[C@H](CCCNC(=N)N)NC(=O)[C@@H]2CSSC[C@@H]3NC(=O)[C@H](CO)NC(=O)[C@H]([C@@H](C)O)NC(=O)[C@@H]4CCCN4C(=O)[C@H](C)NC(=O)[C@H](Cc4c[nH]c5ccccc45)NC(=O)[C@H](CC(=O)O)NC(=O)CNC(=O)[C@H](CCCNC(=N)N)NC(=O)CNC(=O)[C@H](CCC(N)=O)NC(=O)[C@@H]4CCCN4C(=O)[C@@H](NC(=O)CNC(=O)C(C)F)CSSC[C@H](NC(=O)CNC(=O)[C@H](C)NC(=O)[C@H](CC(C)C)NC(=O)[C@H](CSSC[C@@H](C(=O)NCC(N)=O)NC(=O)[C@H]([C@@H](C)O)NC(=O)[C@H](CCCNC(=N)N)NC(=O)[C@@H]4CCCN4C1=O)NC(=O)[C@H](CC(=O)O)NC(=O)[C@H](CO)NC(=O)[C@H](CC(=O)O)NC(=O)[C@H](CCC(N)=O)NC(=O)[C@H](CO)NC3=O)C(=O)N[C@@H](C(C)C)C(=O)N2` (some centres unmarked) [fluorine-18 labelled] is reported as 0.39 ± 0.07 %ID/g (nude mice U-87 MG xenograft, liver; intravenous, 1 h).

For quick reference, copied from above:
The tissue uptake of `CC(=O)N[C@H](CCCCNC(=O)C(C)F)C(=O)N[C@@H](CS)C(=O)N[C@@H](CS)C(=O)N[C@@H](CCC(=O)O)C(=O)N[C@@H](Cc1c[nH]cn1)C(=O)N[C@H](Cc1ccccc1)C(=O)N[C@@H](CCCNC(=N)N)C(=O)N[C@@H](Cc1c[nH]c2ccccc12)C(=O)N[C@@H](CS)C(=O)N[C@@H](CCCNC(=N)N)C(=O)N1CCC[C@H]1C(=O)N[C@H](C(N)=O)C(C)C` (some centres unmarked) [fluorine-18 labelled] is reported as 0.61 ± 0.05 %ID/g (C57BL/6 mice, male, B16-F10 tumour, spleen; intravenous, 1 h).
The Cmax of `C[C@H]1CNCCc2ccc(Cl)cc21` is reported as 106 ng/mL (male Sprague-Dawley rat, plasma; subcutaneous, 3 mg/kg, single dose).
With `CN[C@@](C)(C[18F])C(=O)O` the tissue uptake was 15 ± 5.4 %ID/g (SCID mouse DU-145 xenograft, spleen; 30 min, post injection).
With `CC1(C)S[C@@H]2[C@H](NC(=O)[C@@H](C(=O)O)c3ccsc3)C(=O)N2[C@H]1C(=O)O` the relative error was 2.4% (rat plasma; 2400 ng/mL, 24 h, room temperature, short-term stability; relative to: nominal concentration).
